Assay results from different studies.
Compare with care: the assays were run in different laboratories. Numbers after ± are the reported error.

SMILES | target or system | assay | test system | conditions | scale | quantity | value
COCCOCCOCCNC(=O)Cc1cc(CC(=O)N[C@H]2C[C@H]3C(=O)Nc4cc(OCCOCCOCCOC)cc(n4)C(=O)N4CCC[C@H]4C(=O)Nc4cc(OCCOCCOCCOC)cc(n4)C(=O)N4CCC[C@H]4C(=O)Nc4cc(OCCOCCOCCOC)cc(n4)C(=O)N3C2)cc(CC(=O)N[C@H]2C[C@H]3C(=O)Nc4cc(OCCOCCOCCOC)cc(n4)C(=O)N4CCC[C@H]4C(=O)Nc4cc(OCCOCCOCCOC)cc(n4)C(=O)N4CCC[C@H]4C(=O)Nc4cc(OCCOCCOCCOC)cc(n4)C(=O)N3C2)c1 |  | anion binding, ITC | water | 298 K, added: sodium bromide |  | ΔG | -18.4 ± 0.1 kJ mol^–1
CN(C)CCNc1ccc(-c2nn(C)c(=O)c3ccccc23)cc1[N+](=O)[O-] | Trypanosoma cruzi | reporter mRNA translation, inhibitor, measured: capped polyadenylated Renilla luciferase mRNA | cell-free extract | concentration not given | baseline: control RNA | relative translation | 95.7%
O=c1[nH]cc(C(c2ccccc2Br)c2c[nH]c(=O)[nH]c2=O)c(=O)[nH]1 | HIV-1 subtype C | p24 antigen production, p24 ELISA |  | 1000 µg/mL |  | inhibition | 88%
C=CC(=O)Nc1cccc(Cn2ncc3cnc(Nc4cnn(CCOC)c4)nc32)c1 | FRK human | binding, KINOMEscan |  | 100 nM | lower = stronger binding | percent of control | 52%
CC(C)c1ccc(N(C)c2ccc3c(c2)OCC[C@H]3CNc2cnccc2C(=O)O)cc1 | TF-1 | cell growth or viability, ATP luminescence |  | 7 days |  | IC50 | 2.59 nM
CNS(=O)(=O)Nc1nccc(Cc2c(C)c3ccc(Oc4ncccc4F)cc3oc2=O)c1F | UACC-893 | cell viability |  | 7 days |  | IC50 | > 1000 nM
Nc1ncc(-c2cc(-c3cnn(CC(F)(F)F)c3)ncc2F)nc1C(=O)NC1CNCC(F)C1 (centres unmarked) | CLK2 | KINOMEscan |  | 1 µM | baseline: DMSO control | remaining binding | 100%
COc1cc2c(NC3CCN(C(C)C)CC3)cc(N3CCOCC3)nc2cc1OCCCN1CCCC1 |  | TMT proteomics, measured: MFGE8 | 5xFAD mouse, hippocampus | dose not given | baseline: untreated 5xFAD | log2 fold change | -0.113
Cc1ncsc1-c1ccc(C(C)NC(=O)C2CC(O)CN2C(=O)C(NC(=O)CCCCCCCCCCN2CCCC(Nc3ncc(Cl)c(Nc4ccccc4S(=O)(=O)C(C)C)n3)C2)C(C)(C)C)cc1 (centres unmarked) | 22Rv1 | RNA-seq, measured: TNFRSF12A mRNA |  | concentration not given | baseline: DMSO | log2 fold change | -1.36
COC1CN([C@H]2CC[C@H]([C@@]3(C)Oc4c(Cl)cc(C(=O)NCc5c(SC)cc(C)[nH]c5=O)c(C)c4O3)CC2)C1 |  | RNA-seq, measured: FAM110B mouse homolog | mouse, HT-1376 xenograft, whole blood | dose not given | baseline: vehicle | log2 fold change | 1.36
CN1CCCNC(=O)c2cccc(c2)C(=O)NCCCN(C)CCCNc2cccc3c2C(=O)c2cccc(c2C3=O)NCCC1 | SAS | RNA-Seq, measured: EIF2S3 mRNA |  | 1 µM, 24 h | baseline: untreated cells | log2 fold change | -1.89
COc1cc(O)ccc1CCC(c1ccc(O)cc1)c1cc2c(c(C)c1O)OC(c1ccc(O)cc1)CC2 (mixture of isomers) |  | measured: LTB4 isomers | human whole blood | 0.3 µM, added: Escherichia coli |  | amount | 424 ± 95 pg/mL blood
CCN(CC)CC(=O)Nc1cccc(-n2cc(-c3ccc4ccc(-c5cn(-c6cccc(NC(=O)CN(CC)CC)c6)nn5)cc4c3)nn2)c1 | RCC4 | PCR angiogenesis array, measured: TNF |  | 5 x IC50, 4 h, normoxia | baseline: untreated | fold regulation | -1.61 fold
CC1=CC(OC=C2C(=O)OC3c4ccccc4CC23)OC1=O (racemic) | Phelipanche ramosa | seed germination |  | 1 µM | baseline: (±)-compound | Emax | 100%
C=C(NC(=O)c1csc(-c2nc3c(cc2O)-c2nc(cs2)C(=O)NC(C(C)O)C(=O)NC(=C(C)OC)c2nc(cs2)C(=O)NC2c4nc(cs4)C(=O)NC(COC(=O)c4c5c6c(cccc6n4O)COC(=O)C(OC4CC(C)(O)C(N(C)C)C(C)O4)C2OC5)c2nc-3cs2)n1)C(N)=O (centres unmarked) | Staphylococcus |  | MRSE-37, mouse systemic infection | intravenous | survival | ED50 | 1.91 mg/kg
O=C(c1ccc([N+](=O)[O-])o1)N1CCc2ccccc2C1 | Trypanosoma cruzi | reporter mRNA translation, inhibitor, measured: capped polyadenylated Renilla luciferase mRNA | cell-free extract | concentration not given | baseline: control RNA | relative translation | 109%
CC(=O)[O-].O.O.O.O.[Ni+2].[O-]c1ccc(Br)cc1C=NCCN1CCOCC1 |  | nitric oxide scavenging |  | 120 µM |  | inhibition | 25.8%

A few entries again:
SMILES | target or system | assay | test system | conditions | scale | quantity | value
CC(=O)[O-].O.O.O.O.[Ni+2].[O-]c1ccc(Br)cc1C=NCCN1CCOCC1 |  | nitric oxide scavenging |  | 120 µM |  | inhibition | 25.8%
CNS(=O)(=O)Nc1nccc(Cc2c(C)c3ccc(Oc4ncccc4F)cc3oc2=O)c1F | UACC-893 | cell viability |  | 7 days |  | IC50 | > 1000 nM
